# Results gathered from unrelated publications.
# ± gives the spread as reported.
SMILES,target or system,test,test system,conditions,scale,measurement,result
O=[N+]([O-])c1cccc(S(=O)(=O)NC[C@@H](O)[C@@H]2CCc3cc(F)ccc3O2)c1,Rhizopus arrhizus,microbial growth,,,,MIC,14.4 mg/L
CCCOC(=O)N1c2cc(CNC)ccc2[C@H](NC(=O)C(=O)Nc2ccc(Cl)c(F)c2)[C@H]1CNC(=N)N,Human immunodeficiency virus 1,"viral infection, Env pseudovirus","TZM-bl, 6244_13_B5_4576 clade B T/F",,,IC80,1.65 µM
CC[C@H](C)[C@H](NC(=O)[C@H](Cc1ccccc1)NC(=O)[C@@H](NC(=O)[C@@H](NC(=O)[C@H](CC(C)C)NC(=O)[C@H](CCCCN)NC(=O)[C@@H](N)CCCCN)[C@@H](C)CC)[C@@H](C)O)C(=O)N[C@@H](CC(C)C)C(=O)N[C@@H](CCCCN)C(=O)N[C@@H](CCCCN)C(=O)N[C@H](C(=O)N[C@@H](CCCNC(=N)N)C(=O)N[C@@H](CCC(=O)O)C(=O)N[C@@H](CCCCN)C(=O)N[C@@H](CCCCN)C(=O)N[C@@H](CCCCN)C(=O)N[C@@H](CCC(=O)O)C(=O)N[C@@H](CS)C(=O)N[C@@H](CC(C)C)C(=O)N[C@H](C(=O)O)C(C)C)[C@@H](C)O,TTX-sensitive sodium channel,"open-channel blocker, kinetic model fit",mouse hippocampal CA3 neurons,"200 µM intracellular, membrane potential -30 mV",,unblocking rate constant,449 s⁻¹
COC1CN([C@H]2CC[C@H]([C@@]3(C)Oc4c(Cl)cc(C(=O)NCc5c(SC)cc(C)[nH]c5=O)c(C)c4O3)CC2)C1,,"RNA-seq, item: MARVELD2 mouse homolog","mouse, HT-1376 xenograft, whole blood",dose not given,reference: vehicle,log2 fold change,0.211
C[C@H](Nc1ncnc(N)c1C#N)c1c(-c2ccccc2)[nH]c2c(Cl)cccc2c1=O,WSU-NHL,annexin V flow cytometry,,0.3 µM,reference: untreated,apoptotic cells,4.2 fold
CC[C@H](C)[C@H](NC(=O)[C@H](Cc1ccccc1)NC(=O)[C@@H](NC(=O)[C@@H](NC(=O)[C@H](CC(C)C)NC(=O)[C@H](CCCCN)NC(=O)[C@@H](N)CCCCN)[C@@H](C)CC)[C@@H](C)O)C(=O)N[C@@H](CC(C)C)C(=O)N[C@@H](CCCNC(=N)N)C(=O)N[C@@H](CCCNC(=N)N)C(=O)N[C@H](C(=O)N[C@@H](CCCNC(=N)N)C(=O)N[C@@H](CCC(=O)O)C(=O)N[C@@H](CCCCN)C(=O)N[C@@H](CCCCN)C(=O)N[C@@H](CCCCN)C(=O)N[C@@H](CCC(=O)O)C(=O)N[C@@H](CS)C(=O)N[C@@H](CC(C)C)C(=O)N[C@H](C(=O)O)C(C)C)[C@@H](C)O,TTX-sensitive sodium channel,"open-channel blocker, kinetic model fit",mouse hippocampal CA3 neurons,"200 µM intracellular, membrane potential -30 mV",,unblocking rate constant,232 s⁻¹
F[P-](F)(F)(F)(F)F.OC(Cn1cncn1)(Cn1cc(-[c-]2cccc2)nn1)c1ccc(F)cc1F.[Co+3].c1cc[cH-]c1 (racemic),Trichuris muris,Worminator,adult males and females,"100 µM, day 0",,motility inhibition,30%
CNCc1ccc2c(c1)C[C@H](CNC(=N)N)[C@H]2NC(=O)C(=O)Nc1ccc(Cl)c(F)c1,Human immunodeficiency virus 1,"viral infection, Env pseudovirus","TZM-bl, X1632_S2_B10 clade G",,,IC80,79.8 µM
COc1cc(O)cc(O)c1C(=O)/C=C/c1ccccc1,Human immunodeficiency virus 1,"viral replication, inhibitor, luciferase",MT2,48 h,,IC50,70.6 µM
CC[C@H](C)[C@H](NC(=O)[C@H](C)NC(=O)[C@@H](NC(=O)[C@@H](NC(=O)[C@H](CC(C)C)NC(=O)[C@H](CCCCN)NC(=O)[C@@H](N)CCCCN)[C@@H](C)CC)[C@@H](C)O)C(=O)N[C@@H](CC(C)C)C(=O)N[C@@H](CCCCN)C(=O)N[C@@H](CCCCN)C(=O)N[C@H](C(=O)N[C@@H](CCCNC(=N)N)C(=O)N[C@@H](CCC(=O)O)C(=O)N[C@@H](CCCCN)C(=O)N[C@@H](CCCCN)C(=O)N[C@@H](CCCCN)C(=O)N[C@@H](CCC(=O)O)C(=O)N[C@@H](CS)C(=O)N[C@@H](CC(C)C)C(=O)N[C@H](C(=O)O)C(C)C)[C@@H](C)O,TTX-sensitive sodium channel,"open-channel blocker, kinetic model fit",mouse hippocampal CA3 neurons,"200 µM intracellular, membrane potential -30 mV",,unblocking rate constant,2460 s⁻¹
CC(C)(C)C(=O)Nc1ccc2[nH]c(CN3CCC(N(CCCN4CCOCC4)CC4OC(n5cnc6c(N)ncnc65)C(O)C4O)CC3)nc2c1 (stereo not shown),H460 wild type or R231Q cells,Transwell,,"2.5 and 5 µM, 72 h",reference: untreated,invading cells,decreased
NS(=O)(=O)c1ccc(NC(=O)c2ccccc2SSc2ccccc2C(=O)Nc2ccc(S(N)(=O)=O)cc2)cc1,"Gag-Pol polyprotein, integrase residues 1-213 (gag-pol, Human immunodeficiency virus type 1 group M subtype B, UniProt P04585)","DNA binding, fluorescence anisotropy",integrase ΔC,"compound:IN ratio 3:1, together with: 10 mM Mn2+, U5 DNA",,Hill coefficient,1.21 ± 0.11
CC(=O)NCCN(CC(=O)NCCN(CC(=O)NCCN(CC(=O)NCCC(N)=O)C(=O)[C@@H](N)CCCNC(=N)N)C(=O)[C@@H](N)CCCCN)C(=O)[C@@H](N)Cc1ccccc1,HIV-1 TAR RNA,,,"concentration not given, 25 °C",,binding entropy term TΔS°,-31.8 ± 2.1 kJ/mol
C=C1C[C@](OC)([C@H](O)C(=O)NC[C@@H]2C[C@@H](OC)C(C)(C)[C@@H](C[C@@H](COC)OC)O2)O[C@H](C)[C@@H]1C,U-87 MG,"cell viability, sulforhodamine B",,"72 h, 37 °C, together with: H2O2 100 µM",,IC50,0.007 ± 0.0006 µM
CC(=O)NCCN(CCC(=O)NCCN(CCC(=O)NCCN(CCC(=O)NCCC(N)=O)C(=O)[C@@H](N)CCCCN)C(=O)[C@@H](N)Cc1ccccc1)C(=O)[C@@H](N)Cc1ccccc1,HIV-1 TAR RNA,,,"concentration not given, 25 °C",,binding entropy term TΔS°,-14.2 ± 0.3 kJ/mol
CNCc1ccc2c(c1)N(C(=O)OCc1c(F)c(F)c(F)c(F)c1F)[C@H](CNC(=N)N)[C@H]2NC(=O)C(=O)Nc1ccc(Cl)c(F)c1,Human immunodeficiency virus 1,"viral infection, Env pseudovirus","TZM-bl, Du172.17 clade C",,,IC80,19.3 µM
